{"data": "Assay results from different studies", "note": "Every numbered part comes from another study and shows a few of its results, in no order.", "UniProt Q9P1W9, sequence (whole entry, looked up)": "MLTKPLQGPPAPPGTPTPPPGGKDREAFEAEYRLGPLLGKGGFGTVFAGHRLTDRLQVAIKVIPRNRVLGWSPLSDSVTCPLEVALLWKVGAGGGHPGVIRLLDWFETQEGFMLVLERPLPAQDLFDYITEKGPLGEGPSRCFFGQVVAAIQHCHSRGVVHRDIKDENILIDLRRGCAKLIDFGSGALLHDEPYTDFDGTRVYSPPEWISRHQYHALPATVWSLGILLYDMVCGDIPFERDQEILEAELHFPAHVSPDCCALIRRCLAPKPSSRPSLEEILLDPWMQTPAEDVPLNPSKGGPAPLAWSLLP", "UniProt P11802, sequence (whole entry, looked up)": "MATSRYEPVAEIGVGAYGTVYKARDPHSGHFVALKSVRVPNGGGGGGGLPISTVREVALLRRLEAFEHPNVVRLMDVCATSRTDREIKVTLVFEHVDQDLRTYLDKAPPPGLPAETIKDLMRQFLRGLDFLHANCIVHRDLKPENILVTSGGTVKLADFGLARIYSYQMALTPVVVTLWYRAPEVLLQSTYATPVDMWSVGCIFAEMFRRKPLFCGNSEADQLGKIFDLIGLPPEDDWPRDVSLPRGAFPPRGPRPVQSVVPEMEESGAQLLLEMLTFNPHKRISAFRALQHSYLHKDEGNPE", "UniProt P36897, sequence (whole entry, looked up)": "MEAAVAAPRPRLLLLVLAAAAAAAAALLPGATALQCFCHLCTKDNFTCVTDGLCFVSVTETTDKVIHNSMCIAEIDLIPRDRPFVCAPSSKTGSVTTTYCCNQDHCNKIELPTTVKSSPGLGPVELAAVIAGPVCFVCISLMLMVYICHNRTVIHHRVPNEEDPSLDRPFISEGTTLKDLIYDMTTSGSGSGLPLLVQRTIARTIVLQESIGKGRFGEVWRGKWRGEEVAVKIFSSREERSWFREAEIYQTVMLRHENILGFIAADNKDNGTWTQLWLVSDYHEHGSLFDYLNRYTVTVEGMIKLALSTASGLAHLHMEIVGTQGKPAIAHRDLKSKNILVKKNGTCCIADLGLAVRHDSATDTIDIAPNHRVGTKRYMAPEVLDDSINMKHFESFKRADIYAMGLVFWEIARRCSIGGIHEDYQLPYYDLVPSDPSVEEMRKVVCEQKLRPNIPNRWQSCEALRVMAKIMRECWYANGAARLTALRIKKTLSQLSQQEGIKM"}
{"data": "Series 1", "target": "Max dimerization protein 1, bHLH-zipper, MAX partner unstated (MXD1, Homo sapiens, UniProt Q05195, residues 56-136)", "technique": "protein-binding microarray", "form": "double-stranded DNA, one strand shown", "matrix": "in vitro", "concentration": "not given", "setting": "k-mer, scored over probes, only values ≥0.25", "direction": "higher = stronger binding", "Residues (chain)": "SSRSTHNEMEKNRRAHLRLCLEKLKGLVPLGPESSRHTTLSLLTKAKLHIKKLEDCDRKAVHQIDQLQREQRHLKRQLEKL"}
{"Strand": "ACGAGGTA", "E-score": 0.275}
{"Strand": "GGGGAGGA", "E-score": 0.264}
{"Strand": "CGATCCCC", "E-score": 0.281}
{"Strand": "CACACGCA", "E-score": 0.362}
{"Strand": "CGACCACG", "E-score": 0.309}
{"Strand": "CAGGCATG", "E-score": 0.393}
{"Strand": "ACGAGAAC", "E-score": 0.26}
{"Strand": "ACAGGTGG", "E-score": 0.263}
{"data": "Series 2", "target": "Centromere-binding protein 1, full length, His-tagged (CBF1, Saccharomyces cerevisiae, UniProt P17106, residues 1-351)", "technique": "competition protein-binding microarray", "form": "double-stranded DNA, one strand shown", "matrix": "in vitro", "concentration": "2 µM", "setting": "whole 60-bp probe, lowest competitor level", "added": "Pho4 competitor, 0.05 µM", "direction": "higher = stronger binding", "shared flanks, not repeated": "… GTCTTGATTCGCTTGACGCTGCTG", "UniProt P17106, sequence (whole entry, looked up)": "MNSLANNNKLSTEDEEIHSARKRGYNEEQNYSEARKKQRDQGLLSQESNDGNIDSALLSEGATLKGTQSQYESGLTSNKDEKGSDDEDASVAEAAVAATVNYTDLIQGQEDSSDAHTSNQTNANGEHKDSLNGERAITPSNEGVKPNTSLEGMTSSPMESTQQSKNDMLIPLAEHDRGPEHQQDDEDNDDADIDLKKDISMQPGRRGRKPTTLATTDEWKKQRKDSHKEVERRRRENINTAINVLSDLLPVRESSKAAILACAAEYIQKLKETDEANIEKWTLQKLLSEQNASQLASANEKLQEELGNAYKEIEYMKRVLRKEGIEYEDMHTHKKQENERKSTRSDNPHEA"}
{"Strand": "CATGATAATCTGCAACACAATCAAGGCCAGATTACT", "fluorescence intensity": "67.4 a.u."}
{"Strand": "GTTGGAGATAGTGTAACCGTGACTCGATTTTTCAAG", "fluorescence intensity": "190 a.u."}
{"Strand": "AAGTGCTTTGTTCTTCACGTGCTTTTTACGTCTATG", "fluorescence intensity": "1750 a.u."}
{"Strand": "GAGGCTTTCGATTACCATGTGCAATCTGTCTATGAA", "fluorescence intensity": "129 a.u."}
{"Strand": "AATCGAAAAATTTAGCACGTGGGACGGTAAGCATAA", "fluorescence intensity": "1710 a.u."}
{"Strand": "TAGTTATCCAGATGGATCGTGGCCGCGAGTACACTA", "fluorescence intensity": "69 a.u."}
{"Strand": "TGCGCAACAACTTGAATCGTGGGTGTATGTCTAGAA", "fluorescence intensity": "71 a.u."}
{"Strand": "CGCCGGGCGGCTTTGCACGTTTGAACAAGTATATCC", "fluorescence intensity": "70.2 a.u."}
{"data": "Further values, each from its own experiment"}
{"SMILES": "Cc1cncc2cccc(S(=O)(=O)N3CCCN(C(=O)CN)C[C@@H]3C)c12", "target": "TGFBR1 (Homo sapiens, UniProt P36897)", "assay": "enzyme activity, inhibitor", "setting": "0.5 µM", "scale": "relative to: control", "endpoint": "remaining activity", "value": "100%"}
{"SMILES": "CC(=O)c1c(NS(C)(=O)=O)c2cc(-c3ccc(Cl)cc3)c(-c3ccc(Cl)cc3Cl)nc2n(C)c1=O", "target": "PIM2 (Homo sapiens, UniProt Q9P1W9)", "assay": "cell-free assay, competition with immobilised ligand", "setting": "1 µM", "endpoint": "remaining binding", "value": "100%"}
{"SMILES": "COc1cc(Nc2c(C#N)cnc3cc(OCCCN4CCN(C)CC4)c(OC)cc23)c(Cl)cc1Cl", "target": "Cyclin-dependent kinase 4, with cyclin D1 (CDK4, Homo sapiens, UniProt P11802)", "assay": "enzyme activity, inhibitor", "setting": "0.5 µM", "scale": "relative to: control", "endpoint": "remaining activity", "value": "97.1%"}
